Measurements of several laboratories.
Numbered parts are unrelated; each lists some results of a single study.
Chain of UniProt Q9P1W9 (whole entry, looked up): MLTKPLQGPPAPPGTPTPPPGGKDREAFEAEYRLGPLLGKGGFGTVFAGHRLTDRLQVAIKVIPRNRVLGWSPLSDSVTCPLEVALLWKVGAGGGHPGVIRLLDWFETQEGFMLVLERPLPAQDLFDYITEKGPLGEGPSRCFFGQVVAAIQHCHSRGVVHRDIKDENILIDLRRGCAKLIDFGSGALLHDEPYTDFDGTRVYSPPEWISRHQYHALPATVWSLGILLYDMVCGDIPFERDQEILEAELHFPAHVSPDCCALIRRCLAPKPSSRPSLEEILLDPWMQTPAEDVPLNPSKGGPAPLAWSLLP

Study 1
Molecule: PhoQ, residues 284 288 289 292 302 303 TLMATV
Method: Sort-seq
Measured: YFP reporter
Sample: E. coli
Setting: PhoQ-PhoP variant library
Added: 10 µM Mg2+
Relative to: high Mg2+ state
Direction: higher = stronger signaling
PhoP, residues 12 14 15 18 19 AYFRS (Escherichia coli, UniProt P23836) — fold induction: 13.5.
For PhoP, residues 12 14 15 18 19 SFCSL (Escherichia coli, UniProt P23836): fold induction read 4.64.
For PhoP, residues 12 14 15 18 19 HHYTI (Escherichia coli, UniProt P23836): fold induction read 18.2.

Study 2
Target: RING finger protein unkempt homolog, zinc fingers 1-6, GST-SBP tag (UNK, Homo sapiens, UniProt Q9C0B0, residues 30-357)
Method: RNA Bind-n-Seq
Molecule type: RNA
Sample: in vitro
Tested at: not given
Setting: RNA with constant flanks, human-mouse chimeric sites, ends assumed
Relative to: input RNA pool
Direction: higher = stronger binding
All sequences stand within: GGGAGUUCUACAGUCCGACGAUC … CAACAGAGGAUUGAGCAUCA
Target sequence (chain): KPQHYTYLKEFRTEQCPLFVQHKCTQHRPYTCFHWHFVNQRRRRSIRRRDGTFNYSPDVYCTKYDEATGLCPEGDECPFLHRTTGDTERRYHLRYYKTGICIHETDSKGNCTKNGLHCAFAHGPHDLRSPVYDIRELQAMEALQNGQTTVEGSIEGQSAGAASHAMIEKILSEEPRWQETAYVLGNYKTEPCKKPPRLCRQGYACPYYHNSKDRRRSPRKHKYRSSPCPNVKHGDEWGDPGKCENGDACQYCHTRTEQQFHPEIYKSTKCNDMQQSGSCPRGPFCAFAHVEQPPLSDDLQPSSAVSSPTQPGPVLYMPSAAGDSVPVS
`UGUAGUUUCUUGAUUUAUCAUUUUUCUUGCUCGGGUUUUUCCUUUAGGAAAAGCCUAAAGAUUAGGUUGUAAGAAAAACAGAAGCCAGCCAUGUUUCACCUGUGUUACAGGUAUUUCGUC` has a bound/input enrichment of 0.254 ratio.
`GAUCAUGAACCACCAUCAGAAAUGAAGAUGAGAUUACCCAGACGAGCCAAAACAGCUGCGCUACAGAAAAGUAAACUUAACCUUGCAGAGUUCCUUAAAUGAAGAUCAAGUUAAGAGAGC` has a bound/input enrichment of 0.253 ratio.
The bound/input enrichment of `AUCAAAUACUUUGGGGACAUCAUUAGUGUGGGACAGAGACUGUUGCAAGGAGCUCGGAUUUUAGGAAUUCCAGUUAUCAUAACGGAACAAUACCCCAAAGGACUUGGCAGCACCGUUCAA` is reported as 0.407 ratio.
With `AGAUUCCCCCUCCUGAGACCUCCUCCGAAAUUGGCAUCUCUUACAGAUGCCUCAUCCCCUGUUAGCGUUUUAGUUUGGACCACACAACCUUGGACAAUUCCCGCCAACCAGGCAAUUUGC` the bound/input enrichment was 1.27 ratio.
`GCUCUUGGGAAUGUAAUCAGCGCCUUGGGGGACAAGAGCAAGAGAGCCACCCAUGUCCCCUAUAGAGACUCUAAGCUAACAAGACUAUUGCAGGAUUCCCUUGGGGGUAACAGCCAAACC` gave a bound/input enrichment of 0.204 ratio.
For `AGAGAAAUGAGAAAGAAUCUCACACAAGAAGAGAUGCAAAGAAUGUCUACUAGAGUCCUUUUAGCCACUCUUUCCAUUCCUAUUACUCCUGAGCGAACUGAUAUUGCUCGACUUUUGGAU`, the bound/input enrichment was 0.081 ratio.
`CUGGGUAUCAUCUCUCGUGCUGUUAGACACCUGUUCAAGAGUAUUGAUGAGAAAAAGACCUCAGCGAUUAAAAACGGGCUUCCUGCUCCUGAAUUCAAAGUGAAUGCCCAGUUCCUAGAG` has a bound/input enrichment of 0.159 ratio.
`CCCCAAUACCAUUUGCAAGAGUUGGAAUGCACUCUCUUUAAAGUUUUACAUGUAUACAUUUUAGGGCUGUAGAUUUAUUUUCCUGGUUUUGUUUUUCAUUGCUGACUUUUGAGCACAGAA` has a bound/input enrichment of 1.36 ratio.

Study 3
Target: Prothrombin, mature alpha-thrombin (F2, Homo sapiens, UniProt P00734)
Method: aptamer microarray, sandwich
Molecule type: DNA with 2'F-ANA
Sample: in vitro
Tested at: 200 nM
Setting: whole 15-mer aptamer, many near background
Added: Cy3 exosite-II aptamer, 400 nM
Direction: higher = stronger binding
Strand: GGTTGGTGTGGTTGG
Under “mean fluorescence intensity”, `2'F-ANA at 1 2 6 7 8 11 13 15` is recorded as 123 a.u.
`2'F-ANA at 1 2 3 5 7 10 13 14`: “mean fluorescence intensity” 62 a.u.
`2'F-ANA at 2 4 5 8 9 12 13 14`: “mean fluorescence intensity” 53.4 a.u.
`2'F-ANA at 3 4 5 9 10 13 14 15`: “mean fluorescence intensity” 53.7 a.u.
For `2'F-ANA at 2 3 4 7 9 10 11 12`, “mean fluorescence intensity” read 290 a.u.
For `2'F-ANA at 1 3 4 6 7 8 12 13 14`, “mean fluorescence intensity” read 110 a.u.
`2'F-ANA at 1 3 6 9 10 11 14 15` — result for “mean fluorescence intensity”: 59 a.u.
Under “mean fluorescence intensity”, `2'F-ANA at 2 3 4 5 7 10 12 13` is recorded as 54 a.u.

Mixed results
`C[C@@]1(Cc2ccc(C#N)cc2)C(=O)N(c2cc(Cl)cc(Cl)c2)c2ncc(C(=O)NC3(c4nc(C5CCC5)no4)CC3)n21` gave a remaining binding of 98% (PIM2 (Homo sapiens, UniProt Q9P1W9); cell-free assay, competition with immobilised ligand; 1 µM).
`CC(=O)O/N=C1/C(c2c(O)[nH]c3cc(Br)ccc23)=Nc2ccccc21` gave a remaining activity of 105% (STK39 (Homo sapiens, UniProt Q9UEW8); enzyme activity, inhibitor; 0.5 µM; relative to: control).

A few entries again (study 3):
`2'F-ANA at 1 2 3 5 7 10 13 14`: “mean fluorescence intensity” 62 a.u.
`2'F-ANA at 2 4 5 8 9 12 13 14`: “mean fluorescence intensity” 53.4 a.u.
